Measured values pooled from the literature.
Target: Serine/threonine-protein kinase PAK 5 (PAK5, Homo sapiens, UniProt Q9P286)
Chain of UniProt Q9P286 (whole entry, unmodified, looked up): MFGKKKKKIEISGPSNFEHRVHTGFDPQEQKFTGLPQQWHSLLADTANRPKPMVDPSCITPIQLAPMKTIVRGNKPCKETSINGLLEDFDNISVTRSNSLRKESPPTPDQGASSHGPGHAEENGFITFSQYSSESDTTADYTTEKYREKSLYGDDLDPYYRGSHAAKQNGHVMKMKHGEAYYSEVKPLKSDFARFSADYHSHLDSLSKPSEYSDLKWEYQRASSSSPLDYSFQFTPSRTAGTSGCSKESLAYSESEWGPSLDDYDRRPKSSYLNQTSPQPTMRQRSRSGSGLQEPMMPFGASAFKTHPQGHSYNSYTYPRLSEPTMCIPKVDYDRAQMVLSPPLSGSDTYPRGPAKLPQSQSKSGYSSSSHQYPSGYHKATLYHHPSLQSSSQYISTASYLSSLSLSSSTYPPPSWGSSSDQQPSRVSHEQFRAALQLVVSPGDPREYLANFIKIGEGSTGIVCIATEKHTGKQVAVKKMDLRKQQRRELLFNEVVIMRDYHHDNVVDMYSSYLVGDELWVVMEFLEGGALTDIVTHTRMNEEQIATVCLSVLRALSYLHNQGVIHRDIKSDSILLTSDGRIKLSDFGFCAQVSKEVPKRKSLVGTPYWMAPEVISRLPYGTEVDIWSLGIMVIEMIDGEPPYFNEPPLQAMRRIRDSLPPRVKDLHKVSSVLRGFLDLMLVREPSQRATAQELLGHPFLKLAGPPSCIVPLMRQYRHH

SMILES | test | setting | how to read | measurement | value
COc1cc(Nc2nc(C)cc(-c3cnn4nc(OC)ccc34)n2)cc(C(F)(F)F)c1 | kinase binding | 1 µM, PAK7 |  | percent of control binding | 75%
CN1CC[C@@H](COc2cnc(C#N)cc2-c2ccn3nc(NC(=O)C4CC4)cc3c2)C1 | enzyme activity, inhibitor | 1 µM |  | inhibition | 7%
Cc1ccc(C)c(-c2ccc3nc(NC(=O)C4CCCCC4)nn3c2)c1 | enzyme activity, Dundee kinase panel | 10 µM |  | remaining activity | 68%
Cc1cnc2nc1Nc1cccc(c1)COC/C=C/COCc1cc(ccc1OCCN1CCOCC1)N2 | binding | 0.1 µM |  | remaining binding | 72%
C=CC(=O)Nc1cccc(-c2cnc3[nH]cc(C(=O)NC(C)(C)C)c3n2)c1 | enzyme activity, inhibitor | 0.1 µM |  | inhibition | 12%
NC(=O)[C@@H](O)C[C@H]1CCc2sc3ncnc(O[C@H]4CC[C@H](N5CCOCC5)CC4)c3c21 | enzyme activity, inhibitor | 10 µM |  | inhibition | 5%
Nc1ncc2c(n1)-c1c([nH]c3ccc(C4=CCOCC4)cc13)CCC2 | binding, competition with immobilised ligand | 1 µM |  | remaining binding | 74%
CN1CCN(Cc2ccc(-c3ccc(CO[C@H]4CCC[C@@H]4NC(=O)c4cc(-c5cnn(C)c5)cnc4N)cc3)cc2)CC1 | enzyme activity, inhibitor | 0.1 µM |  | inhibition | 2%
Cc1nc2c(F)cc(-c3nc(Nc4ccc(CNC(=O)CCCCCCC(=O)NO)cc4)ncc3F)cc2n1C(C)C | enzyme activity, inhibitor | 1 µM |  | inhibition | 14%
O=C=[N][Ru-4]123([n]4c5ccc(O)cc5c5c6c(c7cc(F)c[n+]1c7c54)C(=O)NC6=O)[S+]1CC[S+]2CC[S+]3CC1 (stereo not drawn) | enzyme activity | 100 nM, human enzyme, together with: 10 µM ATP | relative to: untreated | remaining activity | 96%
Cc1ccc(-c2c(/C=C(\C#N)C(=O)NC(C)C)n(CCCO)c3ncnc(N)c23)cc1 | cell-free assay, competition with immobilised ligand | 1 µM |  | remaining binding | 85%
CCn1cc(C(=O)O)c(=O)c2c(N)c(F)c(NC3CCCCC3)cc21 | kinase activity | 0.1 µM, together with: ATP at Km |  | inhibition | 8.9%
